Experimental data of several laboratories.
Each numbered part is a random draw from the data of one study; scales do not carry over between parts.

Study 1
Target: RING finger protein unkempt homolog, zinc fingers 1-6, GST-SBP tag (UNK, Homo sapiens, UniProt Q9C0B0, residues 30-357)
Method: RNA Bind-n-Seq
Form: RNA
Medium: in vitro
Tested at: not given
Setting: RNA with constant flanks, ends assumed
Baseline: input RNA pool
Reading: higher = stronger binding
Shared flanks, not repeated: GGGAGUUCUACAGUCCGACGAUC … CAACAGAGGAUUGAGCAUCA
Construct (chain): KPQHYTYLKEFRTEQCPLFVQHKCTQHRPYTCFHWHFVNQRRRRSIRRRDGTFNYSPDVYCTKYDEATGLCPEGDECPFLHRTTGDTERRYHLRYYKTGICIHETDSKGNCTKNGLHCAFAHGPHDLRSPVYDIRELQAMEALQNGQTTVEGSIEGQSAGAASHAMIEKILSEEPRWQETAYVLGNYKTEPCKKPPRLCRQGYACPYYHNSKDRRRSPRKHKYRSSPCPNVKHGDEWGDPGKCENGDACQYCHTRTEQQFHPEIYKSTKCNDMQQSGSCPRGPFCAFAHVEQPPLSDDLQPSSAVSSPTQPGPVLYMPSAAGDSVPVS
Sequence	bound/input enrichment [ratio]
AGAGCUGCCCGUGGUGGGUGUCAGCAGUGUGUCAUGGUCGCCACACAGCAGGGGGUGUGACCGGUCAGCCACGUGAUCCUCAUCUGCACAGAAGCAGAGAGGGCCCCAGGCCCCUGGCCU	0.201
UCAGACACCAUGGUGUGCCAGUCUUCCUCAACUGUAGGUCAGUCAUUCAGUGAACAACACAUCCGCCAACUUCAAGAAAGCAUUCGGGCAGAGAUACCCUGUGAAGAUGAACAAGAGCAA	0.116
UCCGGUUUGGUAAUCAAUACACCUGGAGAAAUGGCUGGAGCCUUCGUGGCAGUGUUUUUACCCGCAAUGUUUUAUGAAGGACUCAAGAUAGCCCGAGAGGGUCUGCUUCGAAAGUCUCAA	0.0816
CAGGUGGGCCAAUCCAAAAUAACAGUUCUUGGCAGUCCUUCCAUGGGUAUCUAUCUUUGCCGGUAUGCAGAUCUCUUACAGGCUAAUCCUUUGGAGGCUGGGGCAGUAGGCGAUGUUGUU	0.644
UAUGAUCAAGUUCUCGUGGAGUCAGACAAUGAGAACCGAAUGGAGGAAAGCAAGGCUCUCUUCCGAACAAUUAUCACAUACCCCUGGUUCCAGAACUCCUCGGUUAUUCUGUUCUUAAAC	0.23
GCAGUUAUAUGUGGAAACACUGGUAAUUCUUUCCACAGUGUUGUUUUGGAUAAUCUGUUCCCGUAUAUUUAACUAAUUGUAUGGUGGACCUGUACUCUGAUACACAUCGAAUCAGUCAAU	0.466
AAGAUUUUAGAAGAAUUUAGGAAAACACAACAGACAUCCCCUGACAAGGUGGAUUAUGAAUACCGUGAACUACUCUUAUAUCAGAAUCAAGUUCUUCGGGAAGCAGGUCUCUAUAGAGAA	2.36
AGUAAGCGGGAUUUUAUGCUGAUCACAAACAAAUCCUUGAAAGAAGAAGAUGGAGAAGAAACCGUUACCUAUGAUCGAGUAUACCAUGCUGUGUCUGUUAUGCGGCAAAGCCGAAGAUAC	0.306
AUUAAAAUAUUACUACUGGGUUAUUAACCCUGCUGACAGCAGUGGCAUUGCACCUAAAGGACCCGGUAAGCUCCUCUGCGGCCUCAUUUCCAUUUUCCUGUGUUUAGAUCCGGGGUGCAG	0.687
GUGACCAAUUUGUUGCAGUUACCUCAGUACUUUGAUUUGGAGAUAUACACCACUGGACGAUCCGAAAAGCAUUUGGAUGCCUUAUUGCGCCAGAUCCGAAAUAUUGUAGAGAAGCACACA	0.262
UACCUUGAAAGAAGAAAAGGUUCUUACUGCUUGGUCCUUGAUUUAUCACACAAAGCAGAACCGUAUUUUUAUAUUUAAAUGUAAAGACAAAAAACUAUAUGUAUGGUUUUGUGGAUUAUG	0.107

Study 2
Target: Interferon regulatory factor 7, full length, phosphomimetic (IRF7, Homo sapiens, UniProt Q92985, residues 1-503, S471D/S472D/S475D/S476D/S477D/S483D/S484D/S487D)
Method: protein-binding microarray
Form: double-stranded DNA, one strand shown
Medium: in vitro
Tested at: 2200 nM top
Setting: 60-bp whole probe
With: salmon DNA 0.4 mg/ml
Baseline: random background probes
Reading: higher = stronger binding
Shared flanks, not repeated: GCCTAGCAC … GTCTTGATTCGCTTGACGCTGCTG
Residues (chain): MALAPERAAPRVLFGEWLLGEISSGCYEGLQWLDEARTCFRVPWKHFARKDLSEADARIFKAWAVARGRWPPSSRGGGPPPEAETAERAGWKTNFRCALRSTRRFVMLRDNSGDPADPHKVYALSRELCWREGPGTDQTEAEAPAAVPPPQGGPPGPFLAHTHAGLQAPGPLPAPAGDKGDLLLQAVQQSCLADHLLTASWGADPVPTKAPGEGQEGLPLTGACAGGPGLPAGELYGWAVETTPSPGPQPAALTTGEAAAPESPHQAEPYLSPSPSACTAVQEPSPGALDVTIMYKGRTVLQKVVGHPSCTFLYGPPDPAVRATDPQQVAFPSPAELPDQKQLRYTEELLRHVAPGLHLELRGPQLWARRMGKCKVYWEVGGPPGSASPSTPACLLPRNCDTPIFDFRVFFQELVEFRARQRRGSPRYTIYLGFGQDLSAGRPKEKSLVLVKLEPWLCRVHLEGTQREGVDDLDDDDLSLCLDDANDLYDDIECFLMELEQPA
Sequence	fitted relative affinity [z-score]
TTGAAAAAATATTTATTTCAGTGCTAG	-0.879
TTAGCTATCGGGTTTCGATTAGTGCTA	2.72
TTAGGACTGTTTATCCTTTAGTGCTAG	0.534
GACTTTTTACCTGTGGTGTAGTGCTAG	1.05
AGTGGGGAGGGAGAGAATCCGTGCTAG	-0.02
TTAGGTTTCCTTCTCCTTTAGTGCTAG	2.36
TTAGGTATCCTTATCCCTTAGTGCTAG	1.43
CACGATTTCAGTTCCGAGACGTGCTAG	2.35
TAAGATATCAGTATCGATTAGTGCTAG	0.215
GACGGTATCGGCCTCGGGACGTGCTAG	-0.481
TACGATATCAGACTGGAGACGTGCTAG	-0.00861
TCCTAATTCTCTTTTCACTTGTGCTAG	2.11
TCATTTTAATTTTTAACACTGTGCTAG	1.28
TTGGAACTGGGGTATCGATTAGTGCTA	0.0756
TTAGATCTCAGTCTCGACTAGTGCTAG	0.0608
TTAGATCTCAGTATGGATTAGTGCTAG	-0.095
GACGGTCTCCTGCTGCTGACGTGCTAG	0.335
TCATGTGTCTTAAATAGGACTGTGCTA	0.119
GACGGACTGGGGACAGGGGACGTGCTA	-0.682
TTAGGATCCCTTTTCCTTTAGTGCTAG	2.15

Study 3
Target: RNA binding protein fox-1 homolog 2, RRM domain, GST-SBP tag (RBFOX2, Homo sapiens, UniProt O43251-10, residues 100-194)
Method: RNA Bind-n-Seq
Form: RNA
Medium: in vitro
Tested at: 365 nM
Setting: natural RNA segment, single round, ends assumed
Baseline: no-protein control
Reading: higher = stronger binding
Shared flanks, not repeated: GGGAGUUCUACAGUCCGACGAUC … UGGAAUUCUCGGGUGCCAA
Target sequence (chain): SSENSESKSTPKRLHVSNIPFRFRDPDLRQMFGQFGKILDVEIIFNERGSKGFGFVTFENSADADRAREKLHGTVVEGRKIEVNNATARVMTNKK
Sequence	RBNS enrichment (R)
CUCACUAUGCUAGGAAUAGACUGUGUGCACCAGUCCCAGACACUUGGCAGAAGUGUAGCAGCGUUACACAUGUGUGCGAAGCAGAUCGCAGGUUCCACGCCAUCUGCAUG	0.609
CUUGUUCAAUGGUUGUAUUUAGUGAGCUCAUAGAGGUCCAUCAUAUCAUGACCGAGCUAGGUUGUGUGGGCAGGAAGGUAGGGCUAAGGGGUUGUAGCCUUGCUGGGCAG	0.668
CUUGCUACACAUCCAUUUGGGGUGGACUAUCAGACCAGGCAAGCCAGUCCUAAAGGCUUCUGUGAAGGAAACCACAGAAAGUGAAAGAAGCAGAAUUAGAAAGAGCAUUC	0.376
CCUACAGCCGCCACUGCUCCUCCACCCUGAUCAUCUCACAGGACAGGGUGGACCGGGUUUUUUUUUUUUUUCACACACCUUUGUAUAUGUAAGUUCAUGUAUAUAAUAUG	0.514
UAAGAAGCCAUUUCCACUACAGUGAGAAAGCCCGGAUCCCAACAGUUGUCAAAUUGAUUAGUUUGCCUAAUUCAUGUUUUCACUUAAAAGUAUCAGAGGUGAAUGCACAG	1.01
GCAGCCUCCACAGUGCGCGUUCAUUUUAUCAUAUUUUGGUAUCGGUAAUUUGAUAUAUUUCAUGGUGGCAAAAUAUUAGCUCUAUUUUGGGACUUUUUCUAGACUUACAU	0.316
ACACCUGUAGCACUUACUGGUAGGACCAAGCAUCUUGGGGGGGUGGCCGCUGAGUGGCAGGGGACAGGAGUCCACUUUGUUUCGUGGGGAGGUCUAAUCUAGAUAUCGAC	1.62
UUCACAGUUUUAAAAACUGCCAUGCAGUGAUUUCGGCACUCUGGGGCCAGACAGCAGCUCCCUGUCAGACGGCCAACAAGAGUUCUCUGGAAUGCUUGUGAGUCCGUUCC	0.487
GAUGGUAGGAGGAGUCACUAAUGUUUCAAUCUCUAUUUCUGUAAUCUUGGGCAAUAAUGCAUAGGAGUUCUUGAUACCCCUUCAUUGAUUACUGUGUAUCAGUUCUUUGU	0.381
AAAGGAAAAGGAAAGGACUAAGUCAGGAGGCCAGAGAGCCUCCGGCCUCGCCUGGAGCCUGAACGGAGCCCUCCUCUCCCACAGGCCCAAGAUAUAACCCACCAGUGCCU	0.37
UUCCCUAUCCCUUCUCCUGAGCACCCUUUGAUUUCUGAGGACAGUACUACCCAUUCAUCUAUUGUAGAGUAACCCUUGUGACUCAAUAUUACCAUAGUGCGAUGUUGUUU	0.514
UCACACUCACACCAGUGCAUUACACUAACCUUGUUCACUGGAUUGUCUGGGGUGACUUGGGCUCAUAUCCACAAUAUUUGGUAUACGGUAGUAGGUUGGUGGGGGUGGGG	0.302

Study 4
Target: Histone acetyltransferase KAT6A, winged helix 1, GST fusion (KAT6A, Homo sapiens, UniProt Q92794, residues 1-85)
Method: protein binding microarray
Form: double-stranded DNA, one strand shown
Medium: in vitro
Tested at: not given
Setting: 8-mer, flanks averaged, mean of 2 arrays, mostly near background
Baseline: not given
Reading: higher = stronger binding
Residues (chain): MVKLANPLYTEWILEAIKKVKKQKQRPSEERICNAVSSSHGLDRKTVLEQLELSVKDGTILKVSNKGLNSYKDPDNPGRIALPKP
Sequence	E-score
CCGTTCCG	0.369
GTATCAGA	-0.0265
AAAAGGTT	-0.00984
CTTGTGCA	-0.0418
TAGGTAAA	-0.169
CCGGCCTA	0.122
CGCGATAC	0.334
GGGGTTTA	-0.0507
CACGTCGG	0.209
AAGAATGT	-0.171
CCAAGGTC	-0.146
GCAAAAGC	0.132
AATGCGGT	0.194
AATTATGT	0.0355
GCCATCGC	0.178
GACGATAA	-0.0223
ACGCGTGC	0.342
TCACAGAA	-0.177
TAAGTAGA	-0.163

For quick reference, copied from above (study 2):
Sequence	fitted relative affinity [z-score]
TAAGATATCAGTATCGATTAGTGCTAG	0.215
GACGGTATCGGCCTCGGGACGTGCTAG	-0.481
TACGATATCAGACTGGAGACGTGCTAG	-0.00861
TCCTAATTCTCTTTTCACTTGTGCTAG	2.11
TCATTTTAATTTTTAACACTGTGCTAG	1.28
TTGGAACTGGGGTATCGATTAGTGCTA	0.0756
TTAGATCTCAGTCTCGACTAGTGCTAG	0.0608
TTAGATCTCAGTATGGATTAGTGCTAG	-0.095
GACGGTCTCCTGCTGCTGACGTGCTAG	0.335
TCATGTGTCTTAAATAGGACTGTGCTA	0.119
